Results collected from several papers.
Parts stem from different laboratories: compare values within a part only.

Series 1
Structure (SMILES): CN1CCN(C(=O)c2ccc(NC(=O)Nc3ccc(N(C)c4ccnc(Nc5ccc(CS(C)(=O)=O)cc5)n4)cc3)cc2)CC1
Tested at: 1 µM
| target | method | item | notes | reference | remaining binding [%] |
| --- | --- | --- | --- | --- | --- |
| CLK4 (Homo sapiens, UniProt Q9HAZ1) | competitive binding panel |  |  | vehicle | 100 |
| MAK (Homo sapiens, UniProt P20794) | competitive binding panel |  |  | vehicle | 64 |
| CAMK2D (Homo sapiens, UniProt Q13557) | competitive binding panel |  |  | vehicle | 69 |
| MAPK13 (Homo sapiens, UniProt O15264) | competitive binding |  | p38-delta |  | 100 |
| ACVR1 (Homo sapiens, UniProt Q04771) | competitive binding panel |  |  | vehicle | 28 |
| NLK (Homo sapiens, UniProt Q9UBE8) | competitive binding panel |  |  | vehicle | 80 |
| EPHA6 (Homo sapiens, UniProt Q9UF33) | competitive binding panel |  |  | vehicle | 76 |
| MAP4K2 (Homo sapiens, UniProt Q12851) | competitive binding panel |  |  | vehicle | 43 |
| NIM1K (Homo sapiens, UniProt Q8IY84) | competitive binding panel | NIM1 |  | vehicle | 99 |
| PIK3CA (Homo sapiens, UniProt P42336, H1047L) | competitive binding panel |  |  | vehicle | 96 |
| PTK6 (Homo sapiens, UniProt Q13882) | competitive binding |  | BRK |  | 95 |
| EPHB4 (Homo sapiens, UniProt P54760) | competitive binding panel |  |  | vehicle | 85 |
| STK32A (Homo sapiens, UniProt Q8WU08) | competitive binding panel | YANK1 |  | vehicle | 68 |
| PIP5K1A (Homo sapiens, UniProt Q99755) | competitive binding panel |  |  | vehicle | 9.3 |
| CSNK2A2 (Homo sapiens, UniProt P19784) | competitive binding panel |  |  | vehicle | 63 |
| DCLK2 (Homo sapiens, UniProt Q8N568) | competitive binding panel | DCAMKL2 |  | vehicle | 79 |
| WNK3 (Homo sapiens, UniProt Q9BYP7) | competitive binding panel |  |  | vehicle | 93 |

Series 2
SMILES: CC(C)[C@H](CO)Nc1nc(Nc2cccc(Cl)c2)c2ncn(C(C)C)c2n1
Observed: enzyme activity
Action: inhibitor
Tested at: 0.5 µM
Reference: control
| target | remaining activity |
| --- | --- |
| ALK (Homo sapiens, UniProt Q9UM73) | 100% |
| NEK11 (Homo sapiens, UniProt Q8NG66) | 67.1% |
| FGR (Homo sapiens, UniProt P09769) | 44.3% |
| LIM domain kinase 1 (LIMK1, Homo sapiens, UniProt P53667) | 86.3% |
| Insulin receptor (INSR, Homo sapiens, UniProt P06213) | 83% |
| TAOK3 (Homo sapiens, UniProt Q9H2K8) | 91.1% |
| FYN (Homo sapiens, UniProt P06241) | 48.9% |
| CDC42BPA (Homo sapiens, UniProt Q5VT25) | 92.3% |
| PRKX (Homo sapiens, UniProt P51817) | 97.4% |
| MATK (Homo sapiens, UniProt P42679) | 93.1% |
| ITK (Homo sapiens, UniProt Q08881) | 86.9% |
| PKN1 (Homo sapiens, UniProt Q16512) | 100% |
| STK25 (Homo sapiens, UniProt O00506) | 116% |
| NLK (Homo sapiens, UniProt Q9UBE8) | 99.2% |
| Cyclin-dependent kinase 3, with cyclin E (CDK3, Homo sapiens, UniProt Q00526) | 34.5% |
| AKT1 (Homo sapiens, UniProt P31749) | 102% |
| PASK (Homo sapiens, UniProt Q96RG2) | 93.1% |
| FLT4 (Homo sapiens, UniProt P35916) | 110% |
| FER (Homo sapiens, UniProt P16591) | 62.9% |
| HIPK1 (Homo sapiens, UniProt Q86Z02) | 103% |
| MARK3 (Homo sapiens, UniProt P27448) | 96.6% |

Series 3
Structure (SMILES): C=CC(=O)N1CCC[C@@H](n2nc(-c3ccc(Oc4ccccc4)cc3)c3c(N)ncnc32)C1
Action: inhibitor
Tested at: 1 µM
| target | observed | inhibition [%] |
| --- | --- | --- |
| MAP3K2 (Homo sapiens, UniProt Q9Y2U5) | enzyme activity | 41 |
| PAK3 (Homo sapiens, UniProt O75914) | enzyme activity | 36 |
| PRKAA1 (Homo sapiens, UniProt Q13131) |  | 4 |
| CDK3 (Homo sapiens, UniProt Q00526) | enzyme activity | 12 |
| KIT (Homo sapiens, UniProt P10721, A829P) |  | 41 |
| BMPR1B (Homo sapiens, UniProt O00238) | enzyme activity | 7 |
| SIK2 (Homo sapiens, UniProt Q9H0K1) | enzyme activity | 0 |
| FGFR2 (Homo sapiens, UniProt P21802) |  | 57 |
| KIT (Homo sapiens, UniProt P10721, T670I/V559D) |  | 2 |
| Tyrosine-protein kinase ABL1, phosphorylated (ABL1, Homo sapiens, UniProt P00519, Y253F) |  | 53 |
| Tyrosine-protein kinase ABL1, phosphorylated (ABL1, Homo sapiens, UniProt P00519, E255K) |  | 34 |
| EGFR (Homo sapiens, UniProt P00533, del747-752/P753S) |  | 51 |
| CDK4 (Homo sapiens, UniProt P11802) |  | 3 |
| FRK (Homo sapiens, UniProt P42685) | enzyme activity | 92 |
| ALK (Homo sapiens, UniProt Q9UM73) |  | 23 |
| CASK (Homo sapiens, UniProt O14936) | enzyme activity | 15 |
| CDK11A (Homo sapiens, UniProt Q9UQ88) | enzyme activity | 0 |
| FGFR3 (Homo sapiens, UniProt P22607) |  | 59 |
| DAPK2 (Homo sapiens, UniProt Q9UIK4) | enzyme activity | 2 |
| TLK1 (Homo sapiens, UniProt Q9UKI8) | enzyme activity | 21 |
| JAK3 (Homo sapiens, UniProt P52333) |  | 97 |

Series 4
Structure (SMILES): CCS(=O)(=O)c1cc2cc(C[C@](O)(CC(C)(C)c3ccc(F)cc3C(N)=O)C(F)(F)F)[nH]c2cn1
Observed: cell-free assay
Method: competition with immobilised ligand
Tested at: 1 µM
| target | remaining binding |
| --- | --- |
| FLT3 (Homo sapiens, UniProt P36888, D835V) | 95% |
| EGFR (Homo sapiens, UniProt P00533, A750P/del747-749) | 93% |
| KIT (Homo sapiens, UniProt P10721, V559D/V654A) | 79% |
| CDKL2 (Homo sapiens, UniProt Q92772) | 93% |
| ULK3 (Homo sapiens, UniProt Q6PHR2) | 100% |
| Tyrosine-protein kinase ABL1, non-phosphorylated (ABL1, Homo sapiens, UniProt P00519, T315I) | 100% |
| EGFR (Homo sapiens, UniProt P00533, L861Q) | 100% |
| CDK7 (Homo sapiens, UniProt P50613) | 95% |
| EPHA8 (Homo sapiens, UniProt P29322) | 82% |
| SNRK (Homo sapiens, UniProt Q9NRH2) | 100% |
| FGFR1 (Homo sapiens, UniProt P11362) | 94% |
| EGFR (Homo sapiens, UniProt P00533, del746-750) | 89% |

Repeated from above (series 4):
| target | remaining binding |
| --- | --- |
| CDKL2 (Homo sapiens, UniProt Q92772) | 93% |
| ULK3 (Homo sapiens, UniProt Q6PHR2) | 100% |
| Tyrosine-protein kinase ABL1, non-phosphorylated (ABL1, Homo sapiens, UniProt P00519, T315I) | 100% |
| EGFR (Homo sapiens, UniProt P00533, L861Q) | 100% |
| CDK7 (Homo sapiens, UniProt P50613) | 95% |
| EPHA8 (Homo sapiens, UniProt P29322) | 82% |
